Experimental data from different studies.
A part holds a random share of what one study measured. Positions count from the first letter of the parent shown.

Sample 1
Target: RING finger protein unkempt homolog, zinc fingers 1-6, SBP tag (UNK, Homo sapiens, UniProt Q9C0B0, residues 30-357)
Chain of UniProt Q9C0B0 (30-357, looked up): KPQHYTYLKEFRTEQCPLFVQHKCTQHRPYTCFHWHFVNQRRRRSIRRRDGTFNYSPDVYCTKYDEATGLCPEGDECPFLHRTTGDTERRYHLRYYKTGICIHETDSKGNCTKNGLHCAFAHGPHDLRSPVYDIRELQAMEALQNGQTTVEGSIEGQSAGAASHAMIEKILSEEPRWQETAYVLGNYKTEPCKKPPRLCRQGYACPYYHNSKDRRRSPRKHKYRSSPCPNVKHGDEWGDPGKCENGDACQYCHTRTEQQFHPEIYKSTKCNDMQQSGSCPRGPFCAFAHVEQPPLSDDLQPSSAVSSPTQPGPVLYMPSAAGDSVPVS
Technique: RNA Bind-n-Seq
Form: RNA
Sample: in vitro
Tested at: 100 nM
Setting: RNA with constant flanks, vertebrate orthologous sites, ends assumed
Relative to: input RNA pool
Reading: higher = stronger binding
Endpoint: bound/input enrichment
All sequences stand within: GGGAGUUCUACAGUCCGACGAUC … CAACAGAGGAUUGAGCAUCA
AAAACUCAGGUUUUAUUUAUUUUGAAAUUAAGCCAACUAUAAAUCUAAUUUAUUACUAAAUAUAAUCUUAAAAGAUUUUUAUGGCUGAACUCUUGAUAGGGACUUCAUACUCCUUACCUU: 0.0778 ratio
CAUGACCUUGUUACUGUGAUAUUUUAAAUAUCCACAGUACUCACUUUUUCCAAAUGAUCCUAGUAAUUGCCUAGAAAUAUCUUUCUCUUACCUGUUAUUUAUCAAUUUUUCCCAGUAUUU: 1.52 ratio
AAUUGACCAAAAACGUUUCCACUGGGUUUUGCCUGUAAGAAAAAAAUGUACCUGAGCACAUAGAGCUUUUUAAUAGCACUAACCAAUGCCUUUUUAGAUGUAUUUUUGAUGUAUAUAUCU: 0.786 ratio
CGUAGAAUAUUGGGUGCAGCAUAUAAAUUAUCCAAGGCAGUGACUUCAGCUUUAUAGAGAUUGUUAGUUUUAAAGUCACCUACUUUUAUUUCAACUUCUAGAUUGGAUUGUUUGCUAUUG: 1.2 ratio
UCAUUGUACUGCCAGCAUCAUCCUAGUGUUAAACCAGCCGCUGUGAUAACUAGUGUGUGCUAGUAGAAUUAUUUACUAUUAUUACCUUUUAAACUAUGCGCUUUGCCCAAUACUCGAAAG: 2.54 ratio
CAACGCCAUGGUGGAAGGCUCCGAGCUCAAAAAGGUUCGAUCCAACUCCAGGGUGUAUCACCGAUACUUCCUUUUGGAUGCCGAUAUGCAGUCUCUACGAUGGGAGCCUUCGAAAAAGGA: 0.154 ratio
AAGAAAUGCUGGCUGCAAACCCUCAGGAUCGUCCAGAUGCUUUUGAACUAGAACUCAGAUUAGUACAAAUUGCAUUUAAAGAUAGCAGCUGGGAAACGUGACACAUGCAUUGUUUGCAAA: 0.614 ratio
GGGUUCGGGGUAGAGGGAGGGAAGGGGACAGGACAGUGUGGAAUCUCUAGGGUGUAUGGAUAGUUAGGGGAUACAGUUAGUUCUAUGUGGGCCUUUAUGUUAAAACCACUGGGAGUGUCU: 0.992 ratio
GUCAUCUGACUGGAUGAAGACGGUACCAAGUUACAACCAAACAAAUAGCUCUCUGGACUUUAGAAAUUAUAUGAUGAGAGAUGAGAAUUUGGAACCACUGCCCAAAAACUGGGAAAUGGC: 0.717 ratio
AACUUGUGUGAAACAUGUCUAUCCAGAGAAGUAGCAUUCUGUAAAUAUUAUCAAGUAAUUUAGUAUUUUUAGGUAUUAAAUUACAUAUCAAGCAUUUAAAGUGAAUUUGAGAUUAAAAGU: 0.386 ratio
CCACUUUUUACCUUCUUAUCACCUCAGUGAGGUAAAGUCUCCUUGGCAUUUGGUUGGUACUAGAGCCAGUGAUUUCUAAGAUUUUUUUACAUUUCAUUUCUUUCACACUCAGUCAUCUUC: 0.424 ratio

Sample 2
Target: CEP164, C-terminal peptide (human)
Technique: DHFR complementation, deep sequencing
Sample: yeast
Setting: single substitutions, model-inferred values
Relative to: wild type
Reading: higher = weaker binding
Endpoint: binding free energy change
Parent: PDZK1, PDZ domain 2 (human); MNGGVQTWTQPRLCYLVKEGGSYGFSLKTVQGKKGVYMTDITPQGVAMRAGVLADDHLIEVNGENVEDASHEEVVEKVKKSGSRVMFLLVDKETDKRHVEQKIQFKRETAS; partner HNRVKVYRF
D40S: 0.711 kcal/mol
Q6C: -0.031 kcal/mol
G35V: 0.454 kcal/mol
G45M: 0.628 kcal/mol
K34Q: 0.209 kcal/mol
G20M: 0.381 kcal/mol
D91Y: 0.0784 kcal/mol
K106P: -0.173 kcal/mol
D40M: 0.938 kcal/mol
G63M: 0.305 kcal/mol
Y15P: 0.793 kcal/mol
E64G: 0.317 kcal/mol
K80A: 0.408 kcal/mol
L58N: 0.638 kcal/mol
I41Y: 1.17 kcal/mol
E64S: 0.224 kcal/mol
P11A: 0.0411 kcal/mol
T109H: -0.154 kcal/mol
D95S: -0.227 kcal/mol
Q6E: -0.0245 kcal/mol

Sample 3
Target: Histone acetyltransferase KAT6A, winged helix 1, GST fusion (KAT6A, Homo sapiens, UniProt Q92794, residues 1-85)
Technique: protein binding microarray
Form: double-stranded DNA, one strand shown
Sample: in vitro
Tested at: not given
Setting: 8-mer, flanks averaged, mean of 2 arrays, mostly near background
Relative to: not given
Reading: higher = stronger binding
Endpoint: E-score
Construct (chain): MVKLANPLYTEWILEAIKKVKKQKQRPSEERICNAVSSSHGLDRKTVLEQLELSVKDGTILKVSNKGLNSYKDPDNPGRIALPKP
GACCATCA: -0.0417
CCCTTGAA: 0.0143
ACCCTCCA: -0.323
CCAGGACA: 0.0228
CACGCGGG: 0.325
GACCCGTC: 0.25
AACCTGGG: -0.132
CGTGCGCA: 0.332
CAGTATGC: 0.0736
GCAGGATA: -0.24
AAGAGAGT: -0.0815
GGTCACTA: -0.101
ATCTAGTG: -0.126
CTTGTAGA: -0.0716
AAGAATTC: -0.0618
TCTGTCCA: -0.144
AGTAAGCA: -0.214
GCCATGGA: 0.0232
ACGGCACT: 0.366
AACTCTCG: -0.0781
CCGTGAAA: 0.311
ACCCGCAC: 0.218
ATTCTCCG: 0.141
CACATAAA: -0.0122
TAGATGCA: -0.2

Sample 4
Target: Interferon regulatory factor 3, full length, phosphomimetic (IRF3, Homo sapiens, UniProt Q14653, residues 1-427, S386D/S396D/S398D/S402D/T404D/S405D)
Technique: protein-binding microarray
Form: double-stranded DNA, one strand shown
Sample: in vitro
Tested at: 2540 nM top
Setting: 60-bp whole probe
With: salmon DNA 0.4 mg/ml
Relative to: random background probes
Reading: higher = stronger binding
Endpoint: fitted relative affinity
All sequences stand within: GCCTAGCAC … GTCTTGATTCGCTTGACGCTGCTG
Construct (chain): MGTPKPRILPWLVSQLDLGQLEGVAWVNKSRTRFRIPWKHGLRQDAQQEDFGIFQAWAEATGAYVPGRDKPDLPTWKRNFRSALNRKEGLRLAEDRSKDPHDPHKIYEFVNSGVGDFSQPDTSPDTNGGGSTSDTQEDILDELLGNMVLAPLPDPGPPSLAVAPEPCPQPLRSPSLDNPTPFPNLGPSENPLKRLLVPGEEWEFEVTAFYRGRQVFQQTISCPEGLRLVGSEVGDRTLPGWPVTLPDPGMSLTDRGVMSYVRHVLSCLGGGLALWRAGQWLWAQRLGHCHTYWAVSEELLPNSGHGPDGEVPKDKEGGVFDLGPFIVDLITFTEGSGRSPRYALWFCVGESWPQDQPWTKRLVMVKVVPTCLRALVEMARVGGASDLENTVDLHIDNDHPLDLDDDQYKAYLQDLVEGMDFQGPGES
TTGTCTTTTCATTTTCTTTAGTGCTAG: 3.27 z-score
GGCGAACTGAGTCTCGAGACGTGCTAG: -0.576 z-score
GAGGGTTTCGGGTTTCGGGACGTGCTA: 4.35 z-score
TTAGATTTCGGCTTTCGATTAGTGCTA: 1.61 z-score
TCACCTTTATATACCTGACTGTGCTAG: 1.4 z-score
TTAGGTTTCCTACTGCTGTAGTGCTAG: 5.05 z-score
TTAGGTCTCCTACTGCATTAGTGCTAG: 0.841 z-score
GTCGAACTGAGTTTCGAGACGTGCTAG: 1.61 z-score
TCACTCTGCTCTTTTCAAACTGTGCTA: 0.812 z-score
GACGATTTCGGGGTTCGAGACGTGCTA: 1.19 z-score
GAGGATCTCAGTTTCGAGACGTGCTAG: 2.06 z-score
CTCTGGGGAGATCAGCGCATGTGCTAG: -1.08 z-score
TCACTTCTCTAACCTCTCACTGTGCTA: 1.7 z-score
TTAGGTTTCGACTTTCGGCTAGTGCTA: 3.24 z-score
TTAGATCTCAGTTTAGATTAGTGCTAG: 0.954 z-score
GGCGCTTTTTTTCCGAGTGAGTGCTAG: 0.966 z-score
TACGGACTGCTTATCCTGACGTGCTAG: -0.232 z-score
GACGTTATCCTTATCCTGACGTGCTAG: 3.13 z-score
TTAGGACTGCATATCCTTTAGTGCTAG: 0.042 z-score
TACGGTTCCGGTTTCGGGACGTGCTAG: 5.63 z-score
TTAGGTTTCGGCATCGGTTAGTGCTAG: 2.99 z-score
TCCTCTTTCACTGGTCCTCATGTGCTA: 1.72 z-score
GACCGTTTCGGTTCCGGGACGTGCTAG: 9.63 z-score
GACGATTTCAGTCTCGATACGTGCTAG: 2.76 z-score
GACGATTTCCTTTCCCTGACGTGCTAG: 5.72 z-score

Sample 5
Target: RNA binding protein fox-1 homolog 2, RRM domain, GST-SBP tag (RBFOX2, Homo sapiens, UniProt O43251-10, residues 100-194)
Technique: RNA Bind-n-Seq
Form: RNA
Sample: in vitro
Tested at: 365 nM
Setting: natural RNA segment, single round, ends assumed
Relative to: no-protein control
Reading: higher = stronger binding
Endpoint: RBNS enrichment (R)
All sequences stand within: GGGAGUUCUACAGUCCGACGAUC … UGGAAUUCUCGGGUGCCAA
Residues (chain): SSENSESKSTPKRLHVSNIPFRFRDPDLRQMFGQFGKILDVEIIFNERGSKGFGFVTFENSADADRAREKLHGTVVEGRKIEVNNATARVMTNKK
UAUUUGAUAGUUUGAGUCAUGGUCUUAGAUAUUAGCUAUUUGUGAGAGGAAACUGGUUUGUAACAAUACUGCAAAUAGAAACCCCAUUUCUACUGAACAUCCUAGUUUUA: 0.438
AGCAUCCCCAUCGCAGCUGUAAGAAUUGAGCUGCAGAAGGUACCCUCUGUCGGGAUUGUAUCUCGACAUCCCUGUCGCGUUUUUCUUAGCUGGAGUGUGUGCUGCCUUUC: 0.522
GCAAGGUAUUAAAAUGCAUUUAUAAAUUCUUCUUGGCUUCAUUCAUGAAUAAACGUGUUAGCAAUUUAAAACAUGUCCUUAUUUGAAAUAACUUGAAAGUGCUUAAUAUG: 0.473
GCCUUUAUCCAAUAACAAACCAGCAUCUCUUAAAGGCGCUUUUGGCCUAGACACCCCUGAAGUUUGGAUGAAGUCUGGUGGAUUCCCUGUCUGUUGUAUUUCUGUGUGCC: 2.61
GUCACUGGAUGCAGAAGUACCCAUUCAUCACACCUGCCCCAUAGCCCCCACUCUGCUGUACUGAUAGGAUUUAGUUGUGUUUUAGGACAUUGCAAAUCUUCUAGAAGUUC: 0.727
UAAGGUGGUGACAUUUAACACAGUUACUCUGUCUUUUUUCAGAUUAUGGGUAUUUAUCCUCUAUUAGUAUCAUAUCGUUUUCAUUCCACUUUAGAAACACAGUUACCAGU: 0.398
UGACCUUUUGGCUUCCACGUCACCCAGAGUGUUAAAAUUUUUACUUAAUUCAUAGCUGUCCUUGAUUUCAUAUUUGUUUGCAUUUAAUUUAUGUUUCUUUGGAUCCUCAU: 16.2
AUUACUAUGCUAGGUCCUCACUACUGCCCCCUGCAGGCUGGGGAAAGGGAACUUUUUGUCUACGCUAAGUCCCUGGCUUCCUCUUAAUCGGUUGGUCUUGCUAAUUGAAG: 0.373
GUAAAGUUGCUGUUGAUCCAAAUAUUUUCAAGCCAUGUAAUCCAUUGGUUUUGUGGGCAGUUUAAUAAACCUGAACCUUUGUGUGUUUUCUAAUUGUACCUGAGUUGACC: 0.672
GGUUGCUGUAGCAACAAGAGUGUUUGGUAGCUGACCAAGGUGUCAGGAUCCCUGACCCUAGCGAUACUUAACAGUUCUUCCCAUGUCCUAUGGUAUCUGUGCUUUUGGCU: 0.287
CAGAGUAUGCCAGUAUCUUAUUGUUAAAACUGAAUCAAAUAAAUCUUCGAUUCCUGGUUAUUUGGACCAUUGACUCAUCAUGGACUAUAUAAUGUAAUAAGAUUCUUUUC: 0.689
UAGUCAUCCACAGAUGGCAAAACUGGACUUGAUUCUACUGGCAUGUAAGACAGGCGUGCUAGUGAGCAGUCGUGUGUGGCUCUGGACUCUGACCCCAGAGCUCUGAAGAA: 1.19

Excerpt of the above (sample 4):
TTAGATTTCGGCTTTCGATTAGTGCTA: 1.61 z-score
TTAGGTCTCCTACTGCATTAGTGCTAG: 0.841 z-score
TCCTCTTTCACTGGTCCTCATGTGCTA: 1.72 z-score
TTAGGTTTCGGCATCGGTTAGTGCTAG: 2.99 z-score
GGCGCTTTTTTTCCGAGTGAGTGCTAG: 0.966 z-score
TTAGATCTCAGTTTAGATTAGTGCTAG: 0.954 z-score
TTGTCTTTTCATTTTCTTTAGTGCTAG: 3.27 z-score
TACGGTTCCGGTTTCGGGACGTGCTAG: 5.63 z-score
